Assay results of several laboratories.
Each numbered part is a random draw from the data of one study; scales do not carry over between parts. Several values in a cell are separate wells, animals, samples, runs or records.
Sequence of UniProt Q13976 (whole entry, looked up): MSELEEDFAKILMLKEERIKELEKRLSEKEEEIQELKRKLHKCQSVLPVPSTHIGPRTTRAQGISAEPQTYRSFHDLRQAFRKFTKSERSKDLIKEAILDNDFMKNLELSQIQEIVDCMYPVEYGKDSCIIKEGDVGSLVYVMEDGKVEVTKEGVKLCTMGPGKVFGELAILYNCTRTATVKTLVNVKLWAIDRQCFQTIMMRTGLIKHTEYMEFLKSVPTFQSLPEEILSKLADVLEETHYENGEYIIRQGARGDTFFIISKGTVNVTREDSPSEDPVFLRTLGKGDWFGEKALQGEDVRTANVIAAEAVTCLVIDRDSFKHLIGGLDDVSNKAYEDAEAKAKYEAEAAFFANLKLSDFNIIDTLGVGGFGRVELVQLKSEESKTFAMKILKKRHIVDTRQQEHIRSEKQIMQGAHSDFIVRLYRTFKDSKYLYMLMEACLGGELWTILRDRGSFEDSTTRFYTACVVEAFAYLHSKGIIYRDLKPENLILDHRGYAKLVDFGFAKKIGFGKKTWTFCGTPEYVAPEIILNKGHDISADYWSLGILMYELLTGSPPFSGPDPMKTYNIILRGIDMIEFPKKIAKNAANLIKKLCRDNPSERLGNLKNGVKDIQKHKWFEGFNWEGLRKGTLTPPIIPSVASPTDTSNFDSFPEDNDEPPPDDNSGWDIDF
Sequence of UniProt Q00536 (whole entry, looked up): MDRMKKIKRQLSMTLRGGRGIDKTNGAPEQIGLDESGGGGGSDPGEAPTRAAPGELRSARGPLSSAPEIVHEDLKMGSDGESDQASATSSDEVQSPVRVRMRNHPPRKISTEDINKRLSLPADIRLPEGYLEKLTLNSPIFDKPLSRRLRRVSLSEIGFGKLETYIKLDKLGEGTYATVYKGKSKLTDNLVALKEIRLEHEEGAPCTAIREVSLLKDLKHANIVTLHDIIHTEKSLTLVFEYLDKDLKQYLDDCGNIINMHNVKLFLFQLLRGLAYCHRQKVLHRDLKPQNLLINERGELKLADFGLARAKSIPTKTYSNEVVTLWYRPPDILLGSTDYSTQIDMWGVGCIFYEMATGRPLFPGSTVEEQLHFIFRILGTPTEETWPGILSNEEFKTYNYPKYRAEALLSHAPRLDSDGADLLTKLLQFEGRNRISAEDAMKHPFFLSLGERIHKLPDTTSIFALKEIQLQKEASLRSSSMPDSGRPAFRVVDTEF
Sequence of UniProt P32298 (whole entry, looked up): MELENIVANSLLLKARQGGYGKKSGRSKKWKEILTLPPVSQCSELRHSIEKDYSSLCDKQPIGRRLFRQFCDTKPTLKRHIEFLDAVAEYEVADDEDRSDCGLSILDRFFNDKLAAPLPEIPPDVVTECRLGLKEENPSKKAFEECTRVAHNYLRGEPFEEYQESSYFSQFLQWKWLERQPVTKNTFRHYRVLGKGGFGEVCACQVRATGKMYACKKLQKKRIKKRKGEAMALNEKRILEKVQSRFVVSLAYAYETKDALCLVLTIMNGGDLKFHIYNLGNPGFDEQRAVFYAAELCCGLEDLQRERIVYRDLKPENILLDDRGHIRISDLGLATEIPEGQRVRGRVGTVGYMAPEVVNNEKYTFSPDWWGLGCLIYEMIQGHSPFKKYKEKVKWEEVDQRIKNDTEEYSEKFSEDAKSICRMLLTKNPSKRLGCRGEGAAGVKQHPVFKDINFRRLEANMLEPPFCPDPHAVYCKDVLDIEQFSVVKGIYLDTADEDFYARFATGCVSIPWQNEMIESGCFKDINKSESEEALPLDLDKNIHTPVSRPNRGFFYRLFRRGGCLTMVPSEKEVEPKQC
Sequence of UniProt Q92772 (whole entry, looked up): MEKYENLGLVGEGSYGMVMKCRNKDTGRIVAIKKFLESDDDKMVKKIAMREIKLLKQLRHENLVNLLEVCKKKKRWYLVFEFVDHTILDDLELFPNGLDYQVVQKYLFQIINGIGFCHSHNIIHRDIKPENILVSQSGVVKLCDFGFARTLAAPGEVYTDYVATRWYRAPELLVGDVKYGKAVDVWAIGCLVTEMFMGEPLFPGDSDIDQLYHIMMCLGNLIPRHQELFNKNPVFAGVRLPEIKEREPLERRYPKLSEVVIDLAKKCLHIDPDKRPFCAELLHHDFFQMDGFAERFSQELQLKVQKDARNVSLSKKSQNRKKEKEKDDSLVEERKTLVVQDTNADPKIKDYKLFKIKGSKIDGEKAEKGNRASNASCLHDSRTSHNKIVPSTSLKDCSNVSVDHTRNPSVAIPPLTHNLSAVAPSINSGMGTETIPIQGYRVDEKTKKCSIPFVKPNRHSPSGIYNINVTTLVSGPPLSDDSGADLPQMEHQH
Sequence of UniProt P42684 (whole entry, looked up): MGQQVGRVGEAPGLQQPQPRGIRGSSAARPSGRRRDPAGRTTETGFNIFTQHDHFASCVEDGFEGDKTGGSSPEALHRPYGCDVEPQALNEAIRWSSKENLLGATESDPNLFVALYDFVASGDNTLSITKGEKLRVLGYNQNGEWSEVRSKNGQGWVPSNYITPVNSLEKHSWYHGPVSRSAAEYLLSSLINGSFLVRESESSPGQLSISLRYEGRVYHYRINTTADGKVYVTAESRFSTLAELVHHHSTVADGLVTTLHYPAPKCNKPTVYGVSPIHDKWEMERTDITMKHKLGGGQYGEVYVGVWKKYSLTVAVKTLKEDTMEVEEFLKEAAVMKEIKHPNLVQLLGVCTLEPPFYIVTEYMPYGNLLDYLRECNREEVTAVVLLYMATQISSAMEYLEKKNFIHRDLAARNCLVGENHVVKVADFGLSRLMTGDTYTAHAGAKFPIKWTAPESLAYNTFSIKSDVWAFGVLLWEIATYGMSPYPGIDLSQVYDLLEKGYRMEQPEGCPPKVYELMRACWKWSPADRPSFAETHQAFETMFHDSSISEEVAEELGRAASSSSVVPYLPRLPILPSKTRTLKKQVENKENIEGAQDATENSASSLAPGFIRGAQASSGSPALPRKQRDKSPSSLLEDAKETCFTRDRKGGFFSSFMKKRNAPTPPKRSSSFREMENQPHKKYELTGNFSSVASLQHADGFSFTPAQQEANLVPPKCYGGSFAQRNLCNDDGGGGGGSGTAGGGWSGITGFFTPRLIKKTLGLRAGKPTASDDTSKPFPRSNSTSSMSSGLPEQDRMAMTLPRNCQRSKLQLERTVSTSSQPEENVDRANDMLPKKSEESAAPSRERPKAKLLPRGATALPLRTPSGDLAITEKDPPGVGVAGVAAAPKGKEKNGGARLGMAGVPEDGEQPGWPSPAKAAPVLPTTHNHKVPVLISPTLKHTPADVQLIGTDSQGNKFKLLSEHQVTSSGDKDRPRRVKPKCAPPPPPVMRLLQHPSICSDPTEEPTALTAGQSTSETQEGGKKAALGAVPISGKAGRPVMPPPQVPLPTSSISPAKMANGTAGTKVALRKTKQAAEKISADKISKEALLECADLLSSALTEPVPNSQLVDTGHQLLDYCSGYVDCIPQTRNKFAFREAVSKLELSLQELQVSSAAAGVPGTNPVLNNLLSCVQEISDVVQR
Sequence of UniProt Q9BVS4 (whole entry, looked up): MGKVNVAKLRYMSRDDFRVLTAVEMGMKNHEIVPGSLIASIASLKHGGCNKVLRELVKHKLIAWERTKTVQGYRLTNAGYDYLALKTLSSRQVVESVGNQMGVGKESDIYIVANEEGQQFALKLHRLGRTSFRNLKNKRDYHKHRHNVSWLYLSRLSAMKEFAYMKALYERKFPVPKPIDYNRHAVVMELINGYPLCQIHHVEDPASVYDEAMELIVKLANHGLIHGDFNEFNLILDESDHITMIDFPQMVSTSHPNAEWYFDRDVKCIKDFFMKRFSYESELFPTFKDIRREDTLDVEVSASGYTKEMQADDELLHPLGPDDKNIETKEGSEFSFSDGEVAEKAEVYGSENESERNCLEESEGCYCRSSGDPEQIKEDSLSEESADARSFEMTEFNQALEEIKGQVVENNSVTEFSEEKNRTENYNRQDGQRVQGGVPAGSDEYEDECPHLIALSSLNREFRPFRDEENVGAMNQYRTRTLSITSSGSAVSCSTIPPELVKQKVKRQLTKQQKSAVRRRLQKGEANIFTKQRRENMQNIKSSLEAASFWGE
Sequence of UniProt P51955 (whole entry, looked up): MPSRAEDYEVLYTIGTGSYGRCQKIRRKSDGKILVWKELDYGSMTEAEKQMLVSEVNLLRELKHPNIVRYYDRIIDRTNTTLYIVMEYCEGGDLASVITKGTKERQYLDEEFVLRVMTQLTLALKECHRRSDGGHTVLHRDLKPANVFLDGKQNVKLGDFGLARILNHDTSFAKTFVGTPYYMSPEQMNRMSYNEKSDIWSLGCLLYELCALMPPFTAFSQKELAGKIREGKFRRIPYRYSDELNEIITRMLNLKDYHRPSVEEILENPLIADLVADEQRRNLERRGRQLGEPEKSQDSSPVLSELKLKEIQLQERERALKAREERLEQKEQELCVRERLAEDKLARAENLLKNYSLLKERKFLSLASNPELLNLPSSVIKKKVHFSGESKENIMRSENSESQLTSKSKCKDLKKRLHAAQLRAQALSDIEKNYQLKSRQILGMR
Sequence of UniProt Q15569 (whole entry, looked up): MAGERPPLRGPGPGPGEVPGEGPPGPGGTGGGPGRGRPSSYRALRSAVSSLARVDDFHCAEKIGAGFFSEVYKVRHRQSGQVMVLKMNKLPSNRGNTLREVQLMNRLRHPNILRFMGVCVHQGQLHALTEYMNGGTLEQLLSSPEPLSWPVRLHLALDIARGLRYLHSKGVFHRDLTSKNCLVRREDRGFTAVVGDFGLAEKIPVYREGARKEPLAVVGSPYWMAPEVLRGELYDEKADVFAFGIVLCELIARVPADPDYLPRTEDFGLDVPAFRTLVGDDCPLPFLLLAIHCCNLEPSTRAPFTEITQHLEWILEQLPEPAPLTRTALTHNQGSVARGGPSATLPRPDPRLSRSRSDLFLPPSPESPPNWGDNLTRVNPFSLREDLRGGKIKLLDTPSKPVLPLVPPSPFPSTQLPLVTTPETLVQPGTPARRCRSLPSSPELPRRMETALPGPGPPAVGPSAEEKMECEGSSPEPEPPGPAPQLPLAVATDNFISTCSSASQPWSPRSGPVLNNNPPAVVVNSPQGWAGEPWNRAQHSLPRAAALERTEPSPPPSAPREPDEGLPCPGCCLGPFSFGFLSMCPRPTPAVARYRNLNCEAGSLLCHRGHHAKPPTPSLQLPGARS

Block 1 — effect on: enzyme activity; mode: inhibitor; concentration: 0.5 µM; relative to: control
Compound: CC(C)c1nn(-c2c(Cl)cccc2Cl)c2nc(Cc3ccc(OCCO)cc3)[nH]c(=O)c12
| target | remaining activity [%] |
| --- | --- |
| IKBKB (Homo sapiens, UniProt O14920) | 103 |
| cGMP-dependent protein kinase 1, isoform beta (PRKG1, Homo sapiens, UniProt Q13976) | 99 |
| STK11 (Homo sapiens, UniProt Q15831) | 47.7 |
| CAMKK2 (Homo sapiens, UniProt Q96RR4) | 90.9 |
| NEK2 (Homo sapiens, UniProt P51955) | 97.7 |

Block 2 — organism: Leishmania infantum chagasi; method: qPCR; host: golden hamster chronic infection; medium: liver; route: oral; dose: 10 mg/kg/day; time: 10 days
Compound: c1ccc(Oc2ccc(Nc3c4c(nc5ccccc35)CCC4)cc2)cc1
| test | threshold cycle |
| --- | --- |
| measured: IL4 mRNA | 35.9 cycles and 30.2 cycles and 29.7 cycles and 28.5 cycles and 29.2 cycles |
| measured: IL10 mRNA | 32.2 cycles and 33.1 cycles and 36.8 cycles and 34.9 cycles and 36 cycles and 36.7 cycles |
| measured: TNF mRNA | 34.3 cycles and 29 cycles and 29.3 cycles and 30.3 cycles and 28.8 cycles and 30 cycles |

Block 3 — cell line: A-375; concentration: 100 µM; time: 18 h
| Compound | viability |
| --- | --- |
| CC(=O)O[C@H]1C[C@@]2(C)[C@@H](C[C@@H](O)[C@H]3[C@@]4(C)CC[C@@H](O)[C@@H](C)[C@@H]4CC[C@@]32C)/C1=C(\CCC=C(C)C)C(=O)O | 81.1% |
| CCC(=O)OCC(=O)[C@@]1(OC(=O)CC)[C@@H](C)C[C@H]2[C@@H]3CCC4=CC(=O)C=C[C@]4(C)[C@@]3(F)[C@@H](O)C[C@@]21C | 71.1% |
| O=c1[nH]c(=O)n([C@H]2C[C@H](O)[C@@H](CO)O2)cc1F | 42.6% |
| CC(C)=CCC[C@](C)(O[C@@H]1O[C@H](CO[C@@H]2O[C@@H](CO)[C@H](O)[C@H]2O)[C@@H](O)[C@H](O)[C@H]1O)[C@H]1CC[C@]2(C)[C@@H]1[C@H](O)C[C@@H]1[C@@]3(C)CC[C@H](O[C@@H]4O[C@H](CO)[C@@H](O)[C@H](O)[C@H]4O[C@@H]4O[C@H](CO)[C@@H](O)[C@H](O)[C@H]4O)C(C)(C)[C@@H]3CC[C@]12C | 105% |
| COCCCN1CCC(NC(=O)c2cc(Cl)c(N)c3c2OCC3)CC1 | 95.1% |
| [H]/N=C(/N)N/C(=N/[H])NCCc1ccccc1 | 98.7% |
| CC(=O)N(O)CCCCCNC(=O)CCC(=O)N(O)CCCCCNC(=O)CCC(=O)N(O)CCCCCN | 98.6% |

Block 4 — method: competition with immobilised ligand; concentration: 0.1 µM
Compound: Cc1cc(C)c(-n2ccn3nc(-c4cccnc4)cc23)cc1NC(=O)c1cc(C#N)cc(S(F)(F)(F)(F)F)c1
| target | test | remaining binding |
| --- | --- | --- |
| PRKG1 (Homo sapiens, UniProt Q13976) | cell-free assay | 100% |
| Ribosomal protein S6 kinase alpha-3, C-terminal kinase domain (RPS6KA3, Homo sapiens, UniProt P51812) | cell-free assay | 65.1% |
| PDPK1 (Homo sapiens, UniProt O15530) | cell-free assay | 100% |
| GRK4 (Homo sapiens, UniProt P32298) | cell-free assay | 100% |
| PAK3 (Homo sapiens, UniProt O75914) | cell-free assay | 26.1% |
| MAST1 (Homo sapiens, UniProt Q9Y2H9) | cell-free assay | 100% |
| MAPK9 (Homo sapiens, UniProt P45984) | cell-free assay | 66.1% |
| Receptor-type tyrosine-protein kinase FLT3, autoinhibited (FLT3, Homo sapiens, UniProt P36888) | cell-free assay | 84.1% |
| ABL2 (Homo sapiens, UniProt P42684) | cell-free assay | 67.8% |
| MAPK4 (Homo sapiens, UniProt P31152) | cell-free assay | 86.3% |
| KIT (Homo sapiens, UniProt P10721, A829P) | cell-free assay | 50.9% |
| Tyrosine-protein kinase ABL1, phosphorylated (ABL1, Homo sapiens, UniProt P00519, Y253F) | cell-free assay | 68.6% |
| Ribosomal protein S6 kinase alpha-1, C-terminal kinase domain (RPS6KA1, Homo sapiens, UniProt Q15418) | cell-free assay | 100% |
| PRKCH (Homo sapiens, UniProt P24723) | cell-free assay | 99.5% |
| CDKL2 (Homo sapiens, UniProt Q92772) | binding | 75.6% |
| RIOK2 (Homo sapiens, UniProt Q9BVS4) | cell-free assay | 74.2% |
| TESK1 (Homo sapiens, UniProt Q15569) | cell-free assay | 85.1% |
| RPS6KB1 (Homo sapiens, UniProt P23443) | cell-free assay | 93% |
| CDK16 (Homo sapiens, UniProt Q00536) | cell-free assay | 92.5% |
| PIK3CA (Homo sapiens, UniProt P42336, C420R) | cell-free assay | 85.4% |

Block 5 — host: mouse; medium: microsomes or S9; concentration: 2 µM; time: 0.5 h
| SMILES | remaining compound [%] |
| --- | --- |
| O=C(CCCOc1ccccc1)Nc1ccccc1-c1ccccc1 | < 1 |
| CCS(=O)(=O)N1CC(=O)N(Cc2ccc(OC(C)C)cc2)C(C)(C(=O)NCc2ccccc2)C1 (stereo not drawn) | 3.92 |
| COc1ccc(Cc2nc3c4c(ncn3n2)OC(C)=C(C(C)=O)C4c2ccccc2)cc1OC (stereo not drawn) | 5.98 |
| COc1cc(=O)[nH]cc1C(=O)N1CCC(C)(C)C(c2ccccc2)C1 (stereo not drawn) | 38.8 |
| CC1(C)CC2(CCCN(CC(O)(c3ccccc3)c3ccccc3)C2)CCO1 (stereo not drawn) | 0.00509 |
| CC(C)c1noc(-c2cccc(=O)n2CC(=O)N2CCN(c3ccc(F)cc3)CC2)n1 | 11.3 |
| CC1CC(C)C(C(=O)NCC(Nc2ccccc2)C(C)C)O1 (stereo not drawn) | 0.0691 |

A few entries again (block 4):
| target | test | remaining binding |
| --- | --- | --- |
| KIT (Homo sapiens, UniProt P10721, A829P) | cell-free assay | 50.9% |
| Tyrosine-protein kinase ABL1, phosphorylated (ABL1, Homo sapiens, UniProt P00519, Y253F) | cell-free assay | 68.6% |
| Ribosomal protein S6 kinase alpha-1, C-terminal kinase domain (RPS6KA1, Homo sapiens, UniProt Q15418) | cell-free assay | 100% |
